Measured values collected from several papers.
Each numbered part is a random draw from the data of one study; scales do not carry over between parts.

Block 1
Target: Histone acetyltransferase KAT6A, both winged helices, GST fusion (KAT6A, Homo sapiens, UniProt Q92794, residues 1-181)
Method: protein binding microarray
Molecule type: double-stranded DNA, one strand shown
Matrix: in vitro
Tested at: not given
Setting: 8-mer, flanks averaged, mean of 2 arrays, mostly near background
Reference: not given
Reading: higher = stronger binding
Target sequence (chain): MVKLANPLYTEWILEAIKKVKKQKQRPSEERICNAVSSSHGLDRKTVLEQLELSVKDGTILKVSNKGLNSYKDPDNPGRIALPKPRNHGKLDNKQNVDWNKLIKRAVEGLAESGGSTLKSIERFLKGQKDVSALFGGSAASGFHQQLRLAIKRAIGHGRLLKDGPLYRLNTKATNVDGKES
Oligonucleotide	E-score
AATACTTG	-0.201
ATAGATGA	-0.088
AACATAGC	-0.106
AGCTCGCA	-0.113
ACCCCAGC	-0.146
AGTGAAGG	-0.25
CAGCTTCA	-0.146
ACCACGTG	-0.0162
AATGATCG	0.0288
GATTCCCA	-0.116
AACTCTAG	-0.216
TCATAAAA	0.0312
ATAGGTCA	-0.0629
CATTTTCG	0.00999
AGTTCATC	-0.057
AAGCGCCT	0.195
AATCCAAC	-0.112
ATTCAGAC	-0.0916
AGAGTCAT	-0.151
CGACGGAG	0.24
GATGGCAC	-0.07
AGCACGTA	-0.0925
ATTATGCA	-0.0652
CGTTTAGA	0.0935

Block 2
Target: Hepatocyte nuclear factor 3-alpha (Foxa1, Mus musculus, UniProt P35582, residues 1-468, full length assumed)
Method: EMSA with sequencing
Molecule type: double-stranded DNA, one strand shown
Matrix: in vitro
Tested at: 10 and 20 nM
Setting: whole designed probe, mean of two concentrations, ends assumed
Reference: negative control set to 0
Reading: higher = stronger binding
Constant ends, left off below: GTGAGCGGTGCCCATTGATGGGGAAC … TTTCACTGGGATCGTGGGGAC
Residues (chain): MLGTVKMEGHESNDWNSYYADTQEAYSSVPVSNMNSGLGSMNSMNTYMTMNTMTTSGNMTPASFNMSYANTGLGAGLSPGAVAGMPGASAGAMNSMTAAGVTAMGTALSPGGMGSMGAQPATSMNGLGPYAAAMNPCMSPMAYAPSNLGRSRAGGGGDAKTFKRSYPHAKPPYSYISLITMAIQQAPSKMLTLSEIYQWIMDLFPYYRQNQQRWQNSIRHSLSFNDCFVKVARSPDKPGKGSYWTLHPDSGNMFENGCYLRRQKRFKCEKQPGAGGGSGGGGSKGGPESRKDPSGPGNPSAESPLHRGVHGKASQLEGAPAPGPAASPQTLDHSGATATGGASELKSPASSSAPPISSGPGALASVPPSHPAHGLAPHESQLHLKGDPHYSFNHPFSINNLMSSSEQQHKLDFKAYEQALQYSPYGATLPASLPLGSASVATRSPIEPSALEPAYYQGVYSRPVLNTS
Oligonucleotide	normalised bound fraction [ratio]
CTCATTCCTTGCTTCCGCCAATAATCTGACTAGTAAAGAAGTCACTGCATGCCACAAATTGTCAGTGCTGACTTCCTCAACAAGGAAGTTATTTATTTACTTATTTAATATATGAGTGACTCAGATGCAAATTCCATCTTGAGAATACCAACTCCTGATGCCAACTGATTGTCAGTCATGGCTACAACAGGAG	0.455
TCTAATCCATACCAAGGATTCCCATGGGGAAACTGTTATCTCTCAACTCAGTGAGGGCTATTGACAAAGACCAGTGCTCTTTCTTCTCTGTAGGTAAACAGTGACTCATGCAAGCCTGAGGGAGAAAATACAGTATATCTAAGAGTTAAGACCTCCCAGCTTCACATTCTGTTATAGCAGCTGCTTCATGCCA	0.273
ATTTTGTTACTTAATAGTTCTACATGTGTATTAAATCAATATTTTAAAAATACCTATTTAATCCTTTAAGATAAGCATGCTTGTGCATTTTTTGTTTACTTTGAGGACTCCTGAGGCCTATGGCCTATTAAAGATTTCCGTCTTAATTATAGATTTATTCATTTCTTCTTATCTTTTCAGCAGTTTTACATTT	0.489
GTAGCCTTTTTCAGATTTCATCAAATATGGTGTTAGGGGGCCCTCATTTGTCCACAAAAAATATGGTGACAAGGGATGATGACGTGAGTCAGAGTAATCTCCATTTACTCACTTTGCGTCACTGTTTATTAGAAGGGCTGTTCGGACTTTCTAGTTGCCAAACTGGACCGTGTATGCTCTCTGAAGAGCGGGC	-0.00352
TCCACAGCTACCCTTGGTTCCTTCAATCCCTCTTCTCCTAAAACAAACAAAAGCATGTTCCTTTGTCATTAAAAAAAAAAAAAAAAAGCAAAGTAAACATGCATCACACAGGCCAGCAGCCAGAAGTTTCCAATGCTCAGTGTCTGCTGCATTCTACGCCTCTATCACACAAAACTCACCACCCTCTAGTTCT	0.501
GGCAAGGTCTCAGGATGTCAAAGGCTCAAGAAATACAAAAATTAGATATGATGAATACTCTTACCAGCCTAACAGGCTTATTCTCTCCTTTAAGCAAACAATATGGGAATCAAATTATTAAAAGGCTACACAGTGGGTGATTAATCAGAATAAGGGTAGTTTTATTTGAAAATTTATAAGGTTCAACTTACTA	0.471
TGCTGGACCCCGGGCATAGGGAGCCCTTGCTGCTTCTCCACCCACCAGTGCTGAGCTCCGGGGGAGATTGCCTTGCAGGTCCAAGGTGAGAATGTAATCTCTGCAATTCCTCTGAAAACTGGCTGGAACCTCCTCCAGGGAGGAAGGGTTGCTCATGGGCTGGCCAGGCTCCCAAACATCATACACAGCAACC	-0.0553
TAAATTCCATATAAATTATACATACAAATACATATTATATATGATATAAATATTTGTTATAACATATTATATAAAATATAAATATATACAATGTAAACATATATATTATTCTATACATGTAAATTATATAGAAAGAATAATATATAAAATGTATATATCTATGTCAGGCACAATTACGTGTGTTATTCAATTT	0.322

Block 3
Target: Fragile X messenger ribonucleoprotein 1, C-terminal low-complexity region (Fmr1, Mus musculus, UniProt P35922)
Method: RNA Bind-n-Seq
Molecule type: RNA
Matrix: in vitro
Tested at: 200 nM
Setting: whole 134-nt RNA, ends assumed
Together with: 150 mM LiCl
Reference: input library
Reading: higher = stronger binding
All molecules: 7-deaza-guanosine replaces G
Constant ends, left off below: GGGAGUUCUACAGUCCGACGAUC … UGGAAUUCUCGGGUGUCAAGG
Oligonucleotide	log2 enrichment
CUCAAGUCCUGUGCUACACAUCGUAUGUACCGAAUCGGAAGGGAAGGGAAGGGAAAGUAUUAUGUUACGCCGUUCGGAUCUGCACUUCCA	-0.025
AAGUCCUGUGCUACACAUCGUAUGUACCGAAUCGGAAAAGGGGAAAAGGAAAAGGGGAAAGUAUUAUGUUACGCCGUUCGGAUCUGCACU	0.341
UGAAUCCUUCCUUGAUGAUGAAGAGGUAUGUCAACAAGGGUAAUAAUUUGUUUUCUUCUGAUUACUCUCAUAUUUUUAUUAUCUUUUAUU	-1.88
UCAAGUCCUGUGCUACACAUCGUAUGUACCGAAUCGGUUUGGGGUUUGGUUUGGGAAAGUAUUAUGUUACGCCGUUCGGAUCUGCACUUC	-1.99
CAAGUCCUGUGCUACACAUCGUAUGUACCGAAUCGGGUGGGAAAGGGAAAAAGGGAAAGUAUUAUGUUACGCCGUUCGGAUCUGCACUUC	-0.303
UCAAGUCCUGUGCUACACAUCGUAUGUACCGAAUCGGGGCGGGGCGGGGCGGGGAAAGUAUUAUGUUACGCCGUUCGGAUCUGCACUUCC	-0.502
UGGCCCUGGUGGCAUGCGGGGAGGAAGAGGUGGCCUCAUGGAUCGUGGUGGUCCCGGUGGAAUGUUCAGAGGGGGCCGUGGUGGAGACAG	-0.908
GUGCUGGCUGGCCACGGUCACCUGUAUUCCCGCAUCCCAGGCCUGCUCAGCCCCCAUCCCCUGCUGCAGCUGAGCUACACGGCCACCGAC	2.13
UGCUUGUUCUGGAGUGAUCUUCUGACUGGAAAAGAACUAUGUCAUGGAUCAAGGAAGGAGAGCUGUCACUUUGGGAGCGGUUCUGUGCCA	1.08
UAACUUUAGAGGAGGAUCUGAUGGAUAUGGCAGUGGACGUGGAUUUGGGGAUGGCUAUAAUGGGUAUUGAGGAGGACCUGGAGGUGGCAA	0.0876
CCUCAAGUCCUGUGCUACACAUCGUAUGUACCGAAUCGGUUGGGUUGGUUGGGAAAGUAUUAUGUUACGCCGUUCGGAUCUGCACUUCCA	-0.476

Block 4
Target: Prothrombin, mature alpha-thrombin (F2, Homo sapiens, UniProt P00734)
Method: aptamer microarray, sandwich
Molecule type: DNA with 2'F-ANA
Matrix: in vitro
Tested at: 200 nM
Setting: whole 15-mer aptamer, many near background
Together with: Cy3 exosite-II aptamer, 400 nM
Reading: higher = stronger binding
Oligonucleotide: GGTTGGTGTGGTTGG
Modification	mean fluorescence intensity [a.u.]
2'F-ANA at 2 3 4 5 7 9 11 12	183
2'F-ANA at 2 3 5 6 8 11 12 13 14 15	116
2'F-ANA at 2 4 6 7 9 13	155
2'F-ANA at 2 3 4 5 7 10 12 15	57
2'F-ANA at 1 13 15	144
2'F-ANA at 2 3 4 5 6 7 8 9 10 13	48.2
2'F-ANA at 2 4 6 9 10 12 14 15	64.3
2'F-ANA at 1 2 3 4 6 7 8 10 13	66.8
2'F-ANA at 1 2 3 6 7 8 9 12 14 15	90.5
2'F-ANA at 1 2 11 13	113
2'F-ANA at 1 3 6 7 10 13 14	66.3
2'F-ANA at 6 7 8 9 10	185
2'F-ANA at 2 4 5 6 7 9 10 13 14 15	46.9
2'F-ANA at 1 4 7 10 11 12	56.4
2'F-ANA at 1 2 4 6 8 12 13 14 15	58.1
2'F-ANA at 1 3 7 9 10 12 15	118
2'F-ANA at 3 6 8 10 12 13 14	329

A few entries again (block 3):
Oligonucleotide	log2 enrichment
CCUCAAGUCCUGUGCUACACAUCGUAUGUACCGAAUCGGUUGGGUUGGUUGGGAAAGUAUUAUGUUACGCCGUUCGGAUCUGCACUUCCA	-0.476
AAGUCCUGUGCUACACAUCGUAUGUACCGAAUCGGAAAAGGGGAAAAGGAAAAGGGGAAAGUAUUAUGUUACGCCGUUCGGAUCUGCACU	0.341
UAACUUUAGAGGAGGAUCUGAUGGAUAUGGCAGUGGACGUGGAUUUGGGGAUGGCUAUAAUGGGUAUUGAGGAGGACCUGGAGGUGGCAA	0.0876
UGGCCCUGGUGGCAUGCGGGGAGGAAGAGGUGGCCUCAUGGAUCGUGGUGGUCCCGGUGGAAUGUUCAGAGGGGGCCGUGGUGGAGACAG	-0.908
